Published values pooled from the literature.
Compare with care: the assays were run in different laboratories.
rep nsp14: Replicase polyprotein 1ab, nsp14 (rep, Severe acute respiratory syndrome coronavirus 2, UniProt P0DTD1)
B1: enzyme (Bacteroides thetaiotaomicron, UniProt Q8A947); chain MIKNIVFDFGGVIVDIDRDKAVQAFIKLGLADADTRLDKYHQTGIFQELEEGKLSADEFRKQLGDLCGRELTMEETKQAWLGFFNEVDLRKLDYILGLRKSYHVYLLSNTNPFVMSWACSPEFSSEGKPLNDYCDKLYLSYQLGHTKPAPEIFDFMIKDSHVIPSETLFVDDGSSNIHIGKELGFETFQPENGADWRQELTVILNS
B2: enzyme (Listeria monocytogenes, UniProt Q8Y7B6); chain MSFDVLTINPGSTSTKLAVYQGDKVLFEETVRHTMQELADFNNVQEQFDFRWQVLRRVMDAHGYDVKKLQAVVGRGGLLRPVAGGTYMVTEKMIDDLKENKYGEHASNLGAMLAKKLADELTIPSFIVDPVVVDEMQEIARISGNAFVTRKSIFHALNHKAAGRKIAKELGKDYEKMNFVIAHLGGGISVAAHRQGKAVDVNNALDGDGPFSPERSGSLPMNDFLEACFSGKWTKRELHELIVGRGGMISYLGTNSMLEVEAKVQAGEEKAIEAFDAMAYQVSKEIGACSVVLQGKVDAIILTGGLARSELFTSKIIEQTNWITSVIIEPGEDELEALNSGVQRVLAGLEKEKEY
Sequence of UniProt P11388 (whole entry, looked up): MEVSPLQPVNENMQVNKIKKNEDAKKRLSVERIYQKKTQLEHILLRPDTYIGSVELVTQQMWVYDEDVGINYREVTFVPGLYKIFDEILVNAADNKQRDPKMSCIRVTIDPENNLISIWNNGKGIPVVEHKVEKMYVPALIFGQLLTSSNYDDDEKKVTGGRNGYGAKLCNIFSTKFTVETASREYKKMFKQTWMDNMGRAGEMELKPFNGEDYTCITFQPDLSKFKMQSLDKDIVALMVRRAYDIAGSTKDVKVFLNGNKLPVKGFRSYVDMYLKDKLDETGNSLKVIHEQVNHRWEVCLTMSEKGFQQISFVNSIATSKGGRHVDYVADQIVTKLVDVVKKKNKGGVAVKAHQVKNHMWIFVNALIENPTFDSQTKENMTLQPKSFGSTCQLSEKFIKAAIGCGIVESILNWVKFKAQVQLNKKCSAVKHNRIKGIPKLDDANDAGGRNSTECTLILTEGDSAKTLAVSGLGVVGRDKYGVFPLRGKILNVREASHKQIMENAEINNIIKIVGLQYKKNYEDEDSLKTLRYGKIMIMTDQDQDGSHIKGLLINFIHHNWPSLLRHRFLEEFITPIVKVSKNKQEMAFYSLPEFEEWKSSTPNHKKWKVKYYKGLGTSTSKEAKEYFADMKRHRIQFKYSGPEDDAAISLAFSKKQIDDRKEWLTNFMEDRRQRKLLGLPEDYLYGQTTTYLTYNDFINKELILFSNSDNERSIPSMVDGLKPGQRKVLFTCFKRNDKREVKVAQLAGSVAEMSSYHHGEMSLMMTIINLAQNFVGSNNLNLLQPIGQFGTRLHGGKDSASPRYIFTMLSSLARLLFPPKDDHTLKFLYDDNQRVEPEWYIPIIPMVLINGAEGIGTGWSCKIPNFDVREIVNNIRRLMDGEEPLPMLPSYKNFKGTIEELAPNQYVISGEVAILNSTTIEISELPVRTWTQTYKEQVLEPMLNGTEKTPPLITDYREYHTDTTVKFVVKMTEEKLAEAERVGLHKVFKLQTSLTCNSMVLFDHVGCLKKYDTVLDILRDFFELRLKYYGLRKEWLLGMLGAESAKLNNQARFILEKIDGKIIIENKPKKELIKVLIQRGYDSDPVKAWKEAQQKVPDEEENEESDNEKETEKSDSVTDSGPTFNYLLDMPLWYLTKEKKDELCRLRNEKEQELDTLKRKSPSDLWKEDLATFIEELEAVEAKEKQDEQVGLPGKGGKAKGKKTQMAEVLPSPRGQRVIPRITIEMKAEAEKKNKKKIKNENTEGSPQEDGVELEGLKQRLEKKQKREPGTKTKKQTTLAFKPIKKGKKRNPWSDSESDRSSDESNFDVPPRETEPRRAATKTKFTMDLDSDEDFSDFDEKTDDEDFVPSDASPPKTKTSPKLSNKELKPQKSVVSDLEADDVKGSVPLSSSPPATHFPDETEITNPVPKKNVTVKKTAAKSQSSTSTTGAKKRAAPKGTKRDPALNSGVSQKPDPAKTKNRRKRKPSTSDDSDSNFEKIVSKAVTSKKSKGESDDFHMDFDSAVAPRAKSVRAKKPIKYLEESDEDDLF

Substance | tested on | test | test system | conditions | scale | endpoint | result
Cc1c(S(=O)(=O)N2CCC(C)CC2)cc(C(=O)NC2Cc3ccccc3C2)n1C | rep nsp14 | inhibitor | – | – | – | IC50 | 40 nM
Fc1ccccc1Cc1nc(-c2nc(C(F)(F)F)n[nH]2)cn2ccnc12 | – | – | healthy human subjects, both sexes | oral, 10 mg, fasted | – | subjects with irregular menstruation | 0%
N#CCC1CCN(c2nc(Nc3ccc(N4CCC(O)CC4)cc3)c3c(=O)[nH]ncc3n2)CC1 | – | vs placebo, Olink multiplex | human, serum | 40 mg, day 15, unit not given | reference: placebo | osteopontin level difference | -1.38
B1 (enzyme) | Nc1c(NC[C@H](O)[C@H](O)[C@H](O)COP(=O)(O)O)[nH]c(=O)[nH]c1=O | steady-state kinetics | – | pH 7.5, 25 °C | – | kcat/Km | 160 M⁻¹ s⁻¹
COC(=O)Nc1c(N)nc(-c2nn(Cc3ccccc3F)c3ncc(F)cc23)nc1N | – | – | human, fasting, plasma | 5 mg single dose, alone, geometric mean | – | AUC | 2490 ng·h/mL
COc1cc([C@@H]2c3cc4c(cc3[C@@H](O[C@@H]3O[C@@H]5CO[C@@H](C)O[C@H]5[C@H](O)[C@H]3O)[C@H]3COC(=O)[C@H]23)OCO4)cc(OC)c1O | TOP2A (Homo sapiens, UniProt P11388) | DNA cleavage | – | 7.8 µM, replicate 1 | – | linear DNA | 9.57%
B2 (enzyme) | CCC(CC)C(=O)O | steady-state kinetics | – | pH 7.5, 37 °C | – | Km | 16.5 mM
Cc1c(C(O)C2Cc3ccccc3C2)cc(C(=O)NCc2cccnc2N2CCCC2)n1C (centres unmarked) | rep nsp14 | inhibitor | – | – | – | IC50 | > 6250 nM

Some of these lines once more:
Substance | tested on | test | test system | conditions | scale | endpoint | result
Cc1c(S(=O)(=O)N2CCC(C)CC2)cc(C(=O)NC2Cc3ccccc3C2)n1C | rep nsp14 | inhibitor | – | – | – | IC50 | 40 nM
